Measured values pooled from the literature.
Each numbered part is a random draw from the data of one study; scales do not carry over between parts. Changes are numbered by the printed parent chain.

Study 1 — method: RNAcompete; form: RNA; matrix: in vitro; tested at: 20 nM; setting: 7-mer, probes averaged, single round; baseline: mean of 7-mers; direction: higher = stronger binding
Target: PABPC1L2, full length, GST fusion (mouse, UniProt A0ABA7IW68)
Residues (chain): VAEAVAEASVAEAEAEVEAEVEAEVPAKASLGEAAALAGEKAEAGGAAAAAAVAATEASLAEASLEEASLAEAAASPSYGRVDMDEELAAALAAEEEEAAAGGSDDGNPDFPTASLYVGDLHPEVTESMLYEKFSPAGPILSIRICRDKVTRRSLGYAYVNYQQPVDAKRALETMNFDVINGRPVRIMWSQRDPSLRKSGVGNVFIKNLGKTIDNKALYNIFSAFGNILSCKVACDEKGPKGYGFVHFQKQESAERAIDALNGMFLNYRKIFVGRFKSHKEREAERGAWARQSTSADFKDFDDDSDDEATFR
Strand | 7-mer Z-score
UGAGAAU | 0.0442
CGCACGG | -0.251
UAUUAUC | -0.295
GUGCCUG | -0.122
CGUUCAG | -0.304
GUUAACU | -0.315
UGAUAAG | -0.166
CGAGUAC | -0.122
AGUUCGA | -0.347
GCGAACG | -0.021
AAGGUUA | 0.0334
CGCGGGA | 0.158
CCAGUAA | 0.0841
UGCAUAC | -0.267
CACAACU | -0.13
CAGAUGG | 0.0841
GGUACAU | -0.0518
CCCUUGA | -0.266
UGGGUUA | -0.0337
AGGAGUU | -0.0863
CCGUGCU | -0.244
GGAUCCC | -0.282
AGCUACC | 0.0696
CUCGCCG | -0.405
GGCGGUU | 0.0388

Study 2 — method: RNA Bind-n-Seq; form: RNA; matrix: in vitro; tested at: not given; baseline: input RNA pool; direction: higher = stronger binding
Target: RING finger protein unkempt homolog, zinc fingers 1-6, GST-SBP tag (UNK, Homo sapiens, UniProt Q9C0B0, residues 30-357)
Chain of UniProt Q9C0B0 (30-357, looked up): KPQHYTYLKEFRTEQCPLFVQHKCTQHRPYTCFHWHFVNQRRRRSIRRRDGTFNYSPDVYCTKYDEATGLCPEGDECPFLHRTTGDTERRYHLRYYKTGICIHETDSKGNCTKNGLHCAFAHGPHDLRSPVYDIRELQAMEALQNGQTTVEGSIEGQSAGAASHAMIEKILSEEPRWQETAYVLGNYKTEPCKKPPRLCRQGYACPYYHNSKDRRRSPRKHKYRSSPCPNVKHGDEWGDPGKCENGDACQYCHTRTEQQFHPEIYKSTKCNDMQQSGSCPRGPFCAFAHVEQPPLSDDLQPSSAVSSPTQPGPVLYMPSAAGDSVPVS
Setting: RNA with constant flanks, human-mouse chimeric sites, ends assumed
Strand | bound/input enrichment [ratio]
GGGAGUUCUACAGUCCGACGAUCACCUCCCCCUCCCGCCUGCUUUUUGAACCGCUUUUUGGAAAGUUUUUGGCUUUUUUUUUCCUUCCCCAUACAAAGUGAUUACAGUUUCCCCCGCAAGGGUCUAUCGAAGGGCUUGACGGACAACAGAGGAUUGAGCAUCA | 1.1
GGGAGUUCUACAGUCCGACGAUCAAGCAACGCAAACUUGAAACAAUUCGUUUUACAAAAACCUCAGUGUUCACUUGCUUGGCGAUAGCAUUGGGGUUUUAUAGGUUCUGGAAGGAGAACUGACGAUGAUGCUGCCGCUGCUGCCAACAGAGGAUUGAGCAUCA | 0.271
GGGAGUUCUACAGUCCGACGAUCGUUCGGCUCUGGGAUCAUGCCACAAUGACAGAAGUGAAAUCUCUGAAUUUUAAUAUGUCUGUUAGCAGCAUGGAGUAUAUUCCUGAGGGAGAGAUUUUGGUUAUUACUUAUGGACGAUCUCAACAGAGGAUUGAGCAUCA | 0.386
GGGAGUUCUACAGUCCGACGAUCACAGUUAUACACUGUUGUUUCAUUUUCAUAUAUUCUUAUGGUGUCUGCUUGCCUGUGACUUCUGGUAAAAUAAAAUAAGCCUUUGAAAAUAUUUUAGCAUGGUAUUUAACAUUUUCUAAACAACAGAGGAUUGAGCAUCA | 1.37
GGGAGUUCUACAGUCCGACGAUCUCUGGUCACACUCGUGUGUAUGGUGUUUGCUUUGUGGACACUUCACUGGGCAAGUUUUUCAUCGGCCAGUUUUCAGAUGACCGCCACUGUUCGAGAUUUAGGACGCUAGUGGCUCACUAUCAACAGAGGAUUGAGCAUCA | 0.201
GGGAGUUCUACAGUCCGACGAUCAAAGAGUGGAUAGAGUGUGCACACGGGAUCGGUGGGACCCGGGCGAAAAAGGAGUGCAAGAUAGAGUAUGAUGAUUUCGAAGAGUGCUUGCUUCGGUACAAAACGAUGAGACGUGCACAUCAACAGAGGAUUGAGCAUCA | 0.671
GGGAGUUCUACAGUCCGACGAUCAGAUUCCCCCUCCUGAGACCUCCUCCGAAGUUGGAGUCUCUUACAGAUGCCUCAUCCCCUGUUAGCGUUUUAGUUUGGACCACCCAGCCUUGGACAAUUCCAGCCAAUGAAGCUGUUUGCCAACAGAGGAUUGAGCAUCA | 1.05
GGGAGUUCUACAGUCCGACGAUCCUGGCCUGGCCCUCCCCUCUAGUGACCUUUCGUAUAGUCACUGCUUCUGCAUCAGAUACUUUCAGCUGCAACUCCCUACUGGGUGGGGCACCCAUUUCAGGCAGAAGUUGGUGCCCCCCUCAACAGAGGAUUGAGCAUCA | 0.609
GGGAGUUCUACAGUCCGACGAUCAAAGAACUUGCUGAUGAUGAAGAUGAGGAAGACAAUGAUGAUGUUGAACCCAUUUCUGAAUUUCGAUUUGUGCCCAGUGAUAAGUCAGCGUUGGAGGCGAUGUUCACAGCAAUGUGUGAGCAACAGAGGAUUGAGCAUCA | 0.315
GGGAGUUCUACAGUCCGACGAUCUAAGUCCUGUGCCAGCACUUCGCUCAUAAAGUUUUAAAUUCUGGACCAAUAGUGUUUGUUUCCUGAUUAUUGUAUCCAAUACUUUGCCUAGUAUGUAACUCAUGCUUACUGAUAAUAAAACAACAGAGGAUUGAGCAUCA | 0.583
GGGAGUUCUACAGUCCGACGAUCUGUGCCCCACAAGAUCCUACCUGAGUGGCAGCUGAAGUUGACUCCCUCUCCUUGCCUGAACCCCCCCCCACUGCCCCCCCAUCCCCCGCAGAAUUCCGAGAUGUUGCCUCUGCACGGUUCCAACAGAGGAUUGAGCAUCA | 1.32

Study 3 — target: CEBPB, bZIP domain (human); method: DHFR protein complementation; matrix: yeast; baseline: wild-type JUN-FOS pair; direction: higher = stronger binding
Setting: single substitutions, most at no-binding floor
Starting sequence: JUN, bZIP domain (human); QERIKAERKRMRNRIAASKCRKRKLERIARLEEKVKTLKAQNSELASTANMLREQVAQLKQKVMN; partner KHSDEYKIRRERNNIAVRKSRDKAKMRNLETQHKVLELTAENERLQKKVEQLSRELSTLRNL
Variant | binding fitness
L38Q | -1.43 natural log
R30N | -1.23 natural log
E33W | -1.48 natural log
K39W | -1.43 natural log
E54N | -1.41 natural log
A40W | -1.4 natural log
K36C | -1.34 natural log
E44C | -1.4 natural log
T48H | -1.28 natural log
E44R | -1.39 natural log
A57R | -1.29 natural log
L52E | -1.49 natural log
A57N | -1.21 natural log
R53A | -0.725 natural log
L52S | -1.59 natural log
V56Q | -1.47 natural log
L31F | -1.57 natural log
E54R | -1.42 natural log
E32P | -1.55 natural log

Study 4 — target: CCNB2, cyclin fold, Cln2 fusion (human); method: yeast growth competition, sequencing; matrix: yeast; setting: weak parent motif; baseline: not given; direction: higher = stronger binding
Starting sequence: INSM1 docking peptide (human); PKAIRKLHFEDEV
Variant | normalised enrichment score
PLAIRKLHFEDEV [K2L] | 0.0508
PGAIRKLHFEDEV [K2G] | 0.153
PKADRKLHFEDEV [I4D] | -0.303
PKAIRKLHFVDEV [E10V] | 0.184
PKAIRKLHFGDEV [E10G] | 0.352
PKAARKLHFEDEV [I4A] | 0.459
PKDIRKLHFEDEV [A3D] | -0.354
PKAIRKLPFEDEV [H8P] | 0.487
PKAIRCLHFEDEV [K6C] | -0.0491
PNAIRKLHFEDEV [K2N] | 0.0942
PKWIRKLHFEDEV [A3W] | -0.0966
PKAIRKLHFEDHV [E12H] | 0.653
PKAIRKLYFEDEV [H8Y] | 0.401
PKAIRKLHFEHEV [D11H] | 0.421
PKAIMKLHFEDEV [R5M] | 0.183
PKAIRKLHPEDEV [F9P] | 0.278
PKAIRMLHFEDEV [K6M] | 0.444
PKAIRKYHFEDEV [L7Y] | 0.459

Study 5 — method: RNA Bind-n-Seq; form: RNA; matrix: in vitro; tested at: 365 nM; baseline: no-protein control; direction: higher = stronger binding
Target: RNA binding protein fox-1 homolog 2, RRM domain, GST-SBP tag (RBFOX2, Homo sapiens, UniProt O43251-10, residues 100-194)
Setting: natural RNA segment, single round, ends assumed
Residues (chain): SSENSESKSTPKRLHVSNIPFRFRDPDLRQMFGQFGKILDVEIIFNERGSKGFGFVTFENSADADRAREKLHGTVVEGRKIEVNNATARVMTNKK
Strand | RBNS enrichment (R)
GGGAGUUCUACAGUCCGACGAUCAGUAGGAUGAGGCCUGUAUUACCGAAGUCUGGGAGCAUAAUUGAACUUGGUCUUCUGUGUUCUAGAGAACAGCACUGCUCUGACAAGUGAAUUCUUGAUAAAUGGCUAAUUGGAAUUCUCGGGUGCCAA | 0.319
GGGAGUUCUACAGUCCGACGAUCCCCUCCCACCACCAGCUCUAAGAUUCUAGGAUAGUCUUGAUAACAUUUCAGUACCUGAAUAGAUGUCAUUUUGUGUUGGUAUAUUCCUCUGCAAAAAGUAUUUUCAAUCUUGGAAUUCUCGGGUGCCAA | 0.366
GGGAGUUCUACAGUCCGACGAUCGUUCUUCACCCUCACAGUGAUACCUCCUUUCCUUGGGUCUCUUGGCCUCCAGACCCCCUCAAUAGACACUGACUAAAGUCAGGCUGGAGUCAUGAGGGUAGUGGGCUAAGUGGAAUUCUCGGGUGCCAA | 0.291
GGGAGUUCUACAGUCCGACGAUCGCUUCGGCUGAUCCCAUAUUGGACCGGAUAGAGCUCAGCUCUUGCCUUUGUUGCUGCUAACACUGGAGGUGGGCGUUCCUAGCUGCAGUGUGCUGCUAUGCCUCUCUGCCUGGAAUUCUCGGGUGCCAA | 0.31
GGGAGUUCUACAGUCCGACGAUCAAGGUCUAAUCAUAAGACAAUUGUUUUUUUGUGCAUAGUUUUCAUCUAAAAUUAAGUUUACCAAAGGCAAAUAACUGCUUACUAGGAACUUCCUUUAGCAAAAAUUACUAUGGAAUUCUCGGGUGCCAA | 0.334
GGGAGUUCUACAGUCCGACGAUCUGCUGAAGCAUUGUAAUCAAGUUUGUAUUGUACAGUCAAAUGUAAGAAAAUAAAAAAAUUCUAGUCUCUUUGAUAUGACAUGCAAAAUAGAAGAGUGGCAAACAAGCUCAUGGAAUUCUCGGGUGCCAA | 0.515
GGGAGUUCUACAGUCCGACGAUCGACAGCUUUGUGAGUUAUUAUUGAAAAAUGAGGAUUCCAAGAGUCAGAGGAGUUUGAUAAUGUGCACGAGGGCACACUGCUAGUAAAUAACAUUAAAAUAACUGGAAUGAUGGAAUUCUCGGGUGCCAA | 5.79
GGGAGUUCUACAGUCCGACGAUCUGGUUUUGAUUUUCUUUUUGUUUUUCUUUCUUCUUCUUAUUUUUUUCAUUUGAGUCUUAGCUCCCAUUUAAGUUAUGCUUCUGACCUUGUAUGGUCUGUAAGCUUGCCCAUGGAAUUCUCGGGUGCCAA | 1.26
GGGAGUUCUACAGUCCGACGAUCAAAUGAGAAUUACUUGGUAUUAUUUUGGUCUGUGGCUUCUAAGAUUUUUUAAAAUACAUGAAAAAUGUAGUAAAUCACUAAAAUUCAUUUAUCCUUCUCCUUUGAAAGAUUGGAAUUCUCGGGUGCCAA | 0.632
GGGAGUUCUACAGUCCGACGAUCUGUGUGUGUUUUGACACAAAAACAAUGCAAGCAUGUGUCAUCCAUAUUUCUCUGCAUCUUCUCUUGGAGUGAGGGAGGCUACCUGGAGGGGAUCAGCCCACUGACAGACCUGGAAUUCUCGGGUGCCAA | 2.16
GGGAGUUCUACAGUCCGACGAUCGGUUUAUCUUUGAGAUGAUAAAGCUAAAUUAUAGUCUUUUGCCAGAGAAACUGAGGUAACUGUCAUUAGAAAAGGUUUCUUAAAAUACUCACAAAGCUGUUAUUGGCUUCUGGAAUUCUCGGGUGCCAA | 0.509
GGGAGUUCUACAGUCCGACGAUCCCUCUGCAACUCCUCCCCCUUUUAUUUCCCCAAUUUAAACAAAGAUUCUGCCAACUGUGGAAACUUCAGUCCCUCAGGCUGGCAGCCAUGCCAGUACCUGCCUGGGGGUGUGGAAUUCUCGGGUGCCAA | 0.611

Excerpt of the above (study 2):
Strand | bound/input enrichment [ratio]
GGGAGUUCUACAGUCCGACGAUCACCUCCCCCUCCCGCCUGCUUUUUGAACCGCUUUUUGGAAAGUUUUUGGCUUUUUUUUUCCUUCCCCAUACAAAGUGAUUACAGUUUCCCCCGCAAGGGUCUAUCGAAGGGCUUGACGGACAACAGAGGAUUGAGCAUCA | 1.1
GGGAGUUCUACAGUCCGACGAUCACAGUUAUACACUGUUGUUUCAUUUUCAUAUAUUCUUAUGGUGUCUGCUUGCCUGUGACUUCUGGUAAAAUAAAAUAAGCCUUUGAAAAUAUUUUAGCAUGGUAUUUAACAUUUUCUAAACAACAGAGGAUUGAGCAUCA | 1.37
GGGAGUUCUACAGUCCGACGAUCCUGGCCUGGCCCUCCCCUCUAGUGACCUUUCGUAUAGUCACUGCUUCUGCAUCAGAUACUUUCAGCUGCAACUCCCUACUGGGUGGGGCACCCAUUUCAGGCAGAAGUUGGUGCCCCCCUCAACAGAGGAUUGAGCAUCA | 0.609
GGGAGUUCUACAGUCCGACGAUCUAAGUCCUGUGCCAGCACUUCGCUCAUAAAGUUUUAAAUUCUGGACCAAUAGUGUUUGUUUCCUGAUUAUUGUAUCCAAUACUUUGCCUAGUAUGUAACUCAUGCUUACUGAUAAUAAAACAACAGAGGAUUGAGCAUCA | 0.583
